{"data": "Assay results of several laboratories", "note": "Numbered parts are unrelated; each lists some results of a single study."}
{"data": "Study 1", "target": "Centromere-binding protein 1, full length, N-terminal tag (CBF1, Saccharomyces cerevisiae, UniProt P17106, residues 1-351)", "method": "protein-binding microarray", "molecule type": "double-stranded DNA, one strand shown", "medium": "in vitro", "concentration": "0.8 µM", "notes": "whole 60-bp probe, no competitor", "direction": "higher = stronger binding", "sequence of UniProt P17106 (whole entry, looked up)": "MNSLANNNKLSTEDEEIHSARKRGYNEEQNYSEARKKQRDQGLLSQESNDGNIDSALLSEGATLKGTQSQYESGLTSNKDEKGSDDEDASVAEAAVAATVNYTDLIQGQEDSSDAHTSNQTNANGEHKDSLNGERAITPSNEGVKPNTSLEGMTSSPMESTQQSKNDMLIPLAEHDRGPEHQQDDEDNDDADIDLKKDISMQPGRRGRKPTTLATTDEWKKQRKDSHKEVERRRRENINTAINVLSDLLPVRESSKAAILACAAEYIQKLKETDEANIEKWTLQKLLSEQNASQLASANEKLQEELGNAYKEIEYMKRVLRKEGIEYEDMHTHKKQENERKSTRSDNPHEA"}
{"Sequence": "GAAGTCTTAATGAGTCACGGGAGGTCAAGATGCTAGGTCTTGATTCGCTTGACGCTGCTG", "fluorescence intensity [a.u.]": 1600}
{"Sequence": "CTAAACTTTCAACATCAGGCTCTTTTCGTTTTATTCGTCTTGATTCGCTTGACGCTGCTG", "fluorescence intensity [a.u.]": 512}
{"Sequence": "CTAAGCTTTGTTCACATGGTGAAAACAATAGCGTTCGTCTTGATTCGCTTGACGCTGCTG", "fluorescence intensity [a.u.]": 802}
{"Sequence": "GAATAGAGATTTTTGCACGAGGATTATTGCCGTTAGGTCTTGATTCGCTTGACGCTGCTG", "fluorescence intensity [a.u.]": 662}
{"data": "Study 2", "target": "Histone acetyltransferase KAT6A, both winged helices, GST fusion (KAT6A, Homo sapiens, UniProt Q92794, residues 1-181)", "method": "protein binding microarray", "molecule type": "double-stranded DNA, one strand shown", "medium": "in vitro", "concentration": "not given", "notes": "8-mer, flanks averaged, mean of 2 arrays, mostly near background", "relative to": "not given", "direction": "higher = stronger binding", "Construct (chain)": "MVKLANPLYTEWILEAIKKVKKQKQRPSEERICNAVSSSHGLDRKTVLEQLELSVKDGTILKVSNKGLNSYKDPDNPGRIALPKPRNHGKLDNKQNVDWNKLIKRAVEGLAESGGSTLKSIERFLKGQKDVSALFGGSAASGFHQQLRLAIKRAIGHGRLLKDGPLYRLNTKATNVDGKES"}
{"Sequence": "CCTACCAG", "E-score": -0.135}
{"Sequence": "ACACCTTA", "E-score": -0.0502}
{"Sequence": "GATCGAGC", "E-score": 0.0673}
{"Sequence": "GGGTATAA", "E-score": -0.0118}
{"Sequence": "ACAGCCGC", "E-score": 0.207}
{"Sequence": "ACTGTCGG", "E-score": 0.158}
{"data": "Study 3", "target": "PABPC1L2, full length, GST fusion (mouse, UniProt A0ABA7IW68)", "method": "RNAcompete", "molecule type": "RNA", "medium": "in vitro", "concentration": "20 nM", "notes": "7-mer, probes averaged, single round", "relative to": "mean of 7-mers", "direction": "higher = stronger binding", "Target sequence (chain)": "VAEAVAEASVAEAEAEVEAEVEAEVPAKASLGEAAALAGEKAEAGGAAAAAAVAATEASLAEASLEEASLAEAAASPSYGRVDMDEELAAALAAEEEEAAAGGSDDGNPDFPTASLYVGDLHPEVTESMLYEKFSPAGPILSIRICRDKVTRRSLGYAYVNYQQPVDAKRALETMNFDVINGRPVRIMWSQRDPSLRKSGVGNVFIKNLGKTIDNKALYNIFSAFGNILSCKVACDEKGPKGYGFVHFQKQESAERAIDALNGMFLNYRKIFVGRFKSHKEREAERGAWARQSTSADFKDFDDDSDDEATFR"}
{"Sequence": "GGGCUGU", "7-mer Z-score": 0.135}
{"Sequence": "CGCGGCA", "7-mer Z-score": -0.0844}
{"Sequence": "UCUUACU", "7-mer Z-score": -0.327}
{"Sequence": "CGCACUU", "7-mer Z-score": -0.309}
{"data": "Single results of other studies"}
{"Substance": "PhoQ, residues 284 288 289 292 302 303 ASTSDA", "target": "PhoP, residues 12 14 15 18 19 TQAIL (Escherichia coli, UniProt P23836)", "test": "Sort-seq, measured: YFP reporter", "test system": "E. coli", "conditions": "PhoQ-PhoP variant library, added: 10 µM Mg2+", "scale": "relative to: high Mg2+ state, higher = stronger signaling", "quantity": "fold induction", "result": 12.4}
